{"data": "Results pooled from the literature", "CNR1": "Cannabinoid receptor 1 (CNR1, Homo sapiens, UniProt P21554)", "CNR1 F170A": "Cannabinoid receptor 1 (CNR1, Homo sapiens, UniProt P21554, F170A)", "note": "Lines come from different studies, so protocols differ. “And” joins repeats or separate records; there may be more than shown. Numbers after ± are the reported error."}
{"Compound": "COC(=O)[C@@H](NC(=O)c1nn(Cc2ccc(F)cc2)c2cc(OCCCCNC(N)=O)ccc12)C(C)(C)C", "target": "Cannabinoid receptor 1, with Gi3 (CNR1, Homo sapiens, UniProt P21554)", "test": "GTP turnover, agonist, item: Gi3 Gα subtype", "quantity": "maximal efficacy", "result": "128%"}
{"Compound": "N[C@H](C(=O)N1CCCC1)C1CCN(c2nccc3c(-c4ncc(Cl)cc4Cl)cccc23)CC1", "target": "CNR1", "test": "functional response, agonist", "setting": "10 µM", "quantity": "response", "result": "-61%"}
{"Compound": "CN[C@@H]1[C@H](O)[C@H](NC)[C@H]2O[C@]3(O)[C@H](O[C@@H]2[C@H]1O)O[C@H](C)C[C@H]3NC(=O)Cc1ccc(Cl)cn1", "target": "CNR1", "test": "ligand displacement, radioligand", "setting": "10 µM", "quantity": "inhibition", "result": "8%"}
{"Compound": "CC(C)[C@H](NC(=O)c1ccn(Cc2ccc(F)cc2)n1)C(N)=O", "target": "CNR1", "test": "calcium signal, agonist, fluorescence", "quantity": "Emax", "result": "96%"}
{"Compound": "Cc1ccc2c(C(C[N+](=O)[O-])c3cccs3)c(-c3ccccc3)[nH]c2c1 (stereo not shown)", "target": "CNR1 (Homo sapiens, UniProt P21554, I245L)", "test": "Gαi1-γ2 dissociation, BRET", "quantity": "Emax", "result": "110 ± 5.57%"}
{"Compound": "CCCCCn1ccc(C(=O)NC(C)(C)c2ccccc2Cl)n1", "target": "CNR1", "test": "calcium signal, agonist, fluorescence", "quantity": "Emax", "result": "79%"}
{"Compound": "CCN(CC)CCOc1ccc(-c2nnn(Cc3ccc(OC)cc3)c2N)cc1", "target": "CNR1", "test": "radioligand binding", "system": "CHO-K1", "setting": "10 µM, safety profiling", "quantity": "inhibition", "result": "1.75%"}
{"Compound": "O=C(O)c1ccc(-c2nc(-c3ccccc3Cl)c3sccn23)cc1", "target": "CNR1", "test": "radioligand binding, safety screen panel", "setting": "10 µM", "scale": "baseline: control", "quantity": "specific binding", "result": "99.8% and 97.3%"}
{"Compound": "COc1ccccc1C(C[N+](=O)[O-])c1c(-c2ccccc2)[nH]c2ccccc12 (stereo not shown)", "target": "CNR1 (Homo sapiens, UniProt P21554, P394A)", "test": "Gαi1-γ2 dissociation, BRET", "quantity": "Emax", "result": "91.6 ± 3.64%"}
{"Compound": "CCCCCn1ccc(C(=O)NC(C)(C)c2ccc(C#N)cc2)n1", "target": "CNR1", "test": "calcium signal, agonist, fluorescence", "quantity": "Emax", "result": "56%"}
{"Compound": "CCCCCn1cc(C(=O)c2cccc3ccccc23)c2ccccc21", "target": "CNR1 F170A", "test": "Gαi1 engagement, agonist, BRET", "scale": "baseline: reference agonist at wild-type CB1", "quantity": "Emax", "result": "37.7 ± 4.7%"}
{"Compound": "Cc1cc(Nc2nc(C[C@@]3(C(=O)O)CCN(Cc4cccc(Cl)c4F)[C@H](C)C3)cc(C)c2F)[nH]n1", "target": "CNR1", "test": "agonist", "setting": "10 µM", "quantity": "activation", "result": "-2.41%"}
{"Compound": "Cc1sc2c(c1C)C(c1ccc(Cl)cc1)=NC(CC(=O)OC(C)(C)C)c1nnc(C)n1-2 (stereo not shown)", "target": "CNR1", "test": "ligand displacement, radioligand", "setting": "1 µM", "quantity": "remaining binding", "result": "100%"}
{"Compound": "CCc1nnc(-c2c(OC)cc(-c3cnc4cc(-c5cnn(C)c5)ccn34)cc2OC)o1", "target": "CNR1", "test": "agonist radioligand, radioligand binding", "setting": "10 µM, SafetyScreen44 CB1", "quantity": "inhibition", "result": "-25%"}
{"Compound": "CCCCCn1ccc(C(=O)NC(C)(C)c2ccc(CN)cc2)n1", "target": "CNR1", "test": "calcium signal, agonist, fluorescence", "quantity": "Emax", "result": "56%"}
{"Compound": "CS(C)(=O)=Nc1ccc(-c2ccc(-c3nc4cc(O[C@@H]5CO[C@H]6[C@@H]5OC[C@H]6O)[nH]c4cc3F)cc2)cc1", "target": "CNR1", "test": "calcium signal, antagonist", "setting": "10 µM", "quantity": "inhibition", "result": "4%"}
{"Compound": "Cc1cc(-c2ccc3ccccc3c2)nnc1NCCN1CCN(C)CC1", "target": "CNR1", "test": "antagonist", "setting": "10000 nM", "scale": "baseline: control", "quantity": "activity", "result": "5%"}
{"Compound": "O=[N+]([O-])CC(c1ccco1)c1c(-c2ccccc2)[nH]c2ccccc12 (stereo not shown)", "target": "Cannabinoid receptor 1, with Gz (CNR1, Homo sapiens, UniProt P21554)", "test": "Gz dissociation, agonist, BRET", "quantity": "Emax", "result": "31.3 ± 6.26%"}
{"Compound": "CCCCCn1cc(C(=O)c2ccc3c(c2)CC(C)(C)C3)c2ccccc21", "target": "CNR1 F170A", "test": "Gαi1 engagement, agonist, BRET", "scale": "baseline: reference agonist at wild-type CB1", "quantity": "Emax", "result": "4 ± 1.4%"}
{"Compound": "CC(=O)Nc1ccc(C(C)(C)NC(=O)c2ccn(Cc3ccc(Cl)cc3)n2)c(Cl)c1", "target": "CNR1", "test": "calcium signal, agonist, fluorescence", "quantity": "Emax", "result": "13%"}
{"Compound": "COC(=O)[C@@H](NC(=O)c1nn(Cc2ccc(F)cc2)c2cc(OCCCCN)ccc12)C(C)(C)C", "target": "CNR1", "test": "β-arrestin-2 recruitment, agonist, BRET", "quantity": "maximal efficacy", "result": "55%"}
{"Compound": "C/C(=N\\OCCCN1CCCCC1)c1ccc(C(F)(F)F)cc1", "target": "CNR1", "test": "agonist, cAMP", "setting": "10 µM", "quantity": "activation", "result": "0.56%"}
{"note": "For quick reference, copied from above:"}
{"Compound": "C/C(=N\\OCCCN1CCCCC1)c1ccc(C(F)(F)F)cc1", "target": "CNR1", "test": "agonist, cAMP", "setting": "10 µM", "quantity": "activation", "result": "0.56%"}
